# Published values collected from several papers.
# Parts stem from different laboratories: compare values within a part only.

# Set 1
# Target: Fragile X messenger ribonucleoprotein 1, C-terminal low-complexity region (Fmr1, Mus musculus, UniProt P35922)
# Technique: RNA Bind-n-Seq
# Form: RNA
# Sample: in vitro
# Tested at: 200 nM
# Notes: whole 134-nt RNA, ends assumed
# With: 150 mM KCl
# Reference: input library
# Direction: higher = stronger binding
Strand,log2 enrichment
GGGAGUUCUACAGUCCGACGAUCCAAGUCCUGUGCUACACAUCGUAUGUACCGAAUCGGGAAAAGGAAAAGGGAAAAGGAAAGUAUUAUGUUACGCCGUUCGGAUCUGCACUUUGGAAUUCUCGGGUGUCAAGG,-0.772
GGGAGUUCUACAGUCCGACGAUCAAGUCCUGUGCUACACAUCGUAUGUACCGAAUCGGGGCCCGGGGCCCGGGCCCGGGAAAGUAUUAUGUUACGCCGUUCGGAUCUGCACUUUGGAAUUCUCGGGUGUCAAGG,-1.14
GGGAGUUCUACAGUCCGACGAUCACCACUGCUACAGUCACCACCACCCAGGCCUCCUAUGCAGCUCAGUCUGCAUAUGGCACUCAGCCUGCUUAUCCAGCCUAUGGGCAGCAGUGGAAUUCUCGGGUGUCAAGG,0.0438
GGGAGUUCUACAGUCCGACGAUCUUCCGCUGUCUUUUCUGUCUACAGUUUGCGAUCCCCGCGUCCAGGAUGGAGCAGCUGAACGAACUGGAGCUGCUGAUGGAGAAGAGUUUUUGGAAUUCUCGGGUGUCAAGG,-0.797
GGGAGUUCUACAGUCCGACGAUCAGUCCUGUGCUACACAUCGUAUGUACCGAAUCGGGGUUUUGGGGUUUUGGUUUUGGGAAAGUAUUAUGUUACGCCGUUCGGAUCUGCACUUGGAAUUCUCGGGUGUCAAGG,0.178
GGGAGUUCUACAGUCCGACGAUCAAGUCCUGUGCUACACAUCGUAUGUACCGAAUCGGGGUUUUGGUUUUGGUUUUGGGGAAAGUAUUAUGUUACGCCGUUCGGAUCUGCACUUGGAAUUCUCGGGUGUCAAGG,-0.416
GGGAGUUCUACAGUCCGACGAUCUCAAGUCCUGUGCUACACAUCGUAUGUACCGAAUCGGUGGAAAAAGGAAAAAGGAAAGUAUUAUGUUACGCCGUUCGGAUCUGCACUUCCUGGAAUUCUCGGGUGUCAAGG,-0.537
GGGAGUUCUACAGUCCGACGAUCGUCCUGUGCUACACAUCGUAUGUACCGAAUCAAACCCCCAAAUUUAAACCCCCCCAAAAAAGUAUUAUGUUACGCCGUUCGGAUCUGCACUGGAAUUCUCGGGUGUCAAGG,0.00411
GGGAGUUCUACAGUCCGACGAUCGCCCUGUAAUCGUGGAGAUCCCGCACUUUGCCUCCCAUGGCCGUGGAGACCGCGAGCUCGUGGUUCUGAGGAGCGAAAACGGCUCCGUGUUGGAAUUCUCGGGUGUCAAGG,-1.83
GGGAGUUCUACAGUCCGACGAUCUCCUCAAGUCCUGUGCUACACAUCGUAUGUACCGAAUCGGUGGGGUGGUGGAAAGUAUUAUGUUACGCCGUUCGGAUCUGCACUUCCAGCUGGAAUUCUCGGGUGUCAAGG,-0.306

# Set 2
# Target: RNA binding protein fox-1 homolog 2, RRM domain, GST-SBP tag (RBFOX2, Homo sapiens, UniProt O43251-10, residues 100-194)
# Technique: RNA Bind-n-Seq
# Form: RNA
# Sample: in vitro
# Tested at: 365 nM
# Notes: natural RNA segment, single round, ends assumed
# Reference: no-protein control
# Direction: higher = stronger binding
# Residues (chain): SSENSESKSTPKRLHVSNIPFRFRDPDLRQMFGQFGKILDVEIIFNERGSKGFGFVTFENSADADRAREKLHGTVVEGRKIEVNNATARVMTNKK
Strand,RBNS enrichment (R)
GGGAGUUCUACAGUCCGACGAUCCUUCUGAGAGGCAAUGUGAAAGAGGAAGUAUUACUUUUUAUGUACAGAGUUAUUUAUUUAUAGAAAUUUUGGUACAGUGUACAUUGAAAACAUGUAAAAUAUUGAAGUGUUGGAAUUCUCGGGUGCCAA,0.829
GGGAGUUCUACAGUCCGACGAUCUGGAAAGGUGUUGGCGCUGAUGUAGCUCAUGGAAGGAUCAGACUGGGAACCACAGAGGAAGGAUGAGGUGGGAUGUGGAGGUCAGAGCAUCUCACGAGAGUCCCUCAGGCUGGAAUUCUCGGGUGCCAA,1.02
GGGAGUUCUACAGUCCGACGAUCGAUUGCGAAACACAGGAAUGUGCAGGCGCUCCGGGGGGUGUAAAGUGAACGUUUCCAUCGUUAGAAUGUUUUCUCUGGCCAUUUGUGGAUUUAAUGCACUUGACGUGGAUUGGAAUUCUCGGGUGCCAA,0.55
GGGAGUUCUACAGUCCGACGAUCGGUUGCUGCUGAAGGAGGAGGCAGCAGCGAGGUCCUGCGGUACCCAUGGGGUGAUGCUACUUCUGCAUGCAUCUACAGGGCAUCUGACACCUAACAUGAGACGUGGCAUGUGGAAUUCUCGGGUGCCAA,6.47
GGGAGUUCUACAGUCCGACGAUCAGAUACUCUAGGAUGAUCACUUGUGCUUAGCUUAGCAUUGUAACUCUUUAAGUCUAUAUUUUCCUCAGUGCGUUUCUUUACAAUUUCAAAUGUUACCCUGAUUGUUUAUAUGGAAUUCUCGGGUGCCAA,0.516
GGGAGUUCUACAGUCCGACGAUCCCCCAUCAAAAAAAAAAAUGGAUACAUGGUUAAAGGAUAGAAGGGCAAUAUUUUAUCAUAUGUUCUAAAAGAGAAGGAAGAGAAAAUACUACUUUCUCAAAAUGGAAGCCUGGAAUUCUCGGGUGCCAA,0.5
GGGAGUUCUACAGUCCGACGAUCUGUAAUGAACAGACCCGAAGGAAUCCUCCACACACAAGCCAGGGAACACCAACUGGAAAGGUACCCCGUCCCAGGGAAGCCUGCUAGGGAGAGGUUCUGUAGAAUCCGAGUGGAAUUCUCGGGUGCCAA,0.246
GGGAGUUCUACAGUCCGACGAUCAAACCAGUCAAGAGCAAUCAAAGCAGCACAUGGUGUUGUAUACUUCAUUAGCAAGUGAGUUUGGUGUUUUAUAGGUCACAUAUGUCUGUAUCUACUUAGCCAGAUGCUUGUGGAAUUCUCGGGUGCCAA,0.398
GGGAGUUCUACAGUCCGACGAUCUUGACUUGCUUGGUUUCAUUCACCAAACCAACCCAAGUCGUGUCAUUCUUGCCUAUUAACAUCUGAUGUAAGGCGCUCAUAUAGGCUGUGUGUACAAUCUUGGGCACUGAUGGAAUUCUCGGGUGCCAA,0.207

# Set 3
# Target: Histone acetyltransferase KAT6A, winged helix 1, GST fusion (KAT6A, Homo sapiens, UniProt Q92794, residues 1-85)
# Technique: protein binding microarray
# Form: double-stranded DNA, one strand shown
# Sample: in vitro
# Tested at: not given
# Notes: 8-mer, flanks averaged, mean of 2 arrays, mostly near background
# Reference: not given
# Direction: higher = stronger binding
# Residues (chain): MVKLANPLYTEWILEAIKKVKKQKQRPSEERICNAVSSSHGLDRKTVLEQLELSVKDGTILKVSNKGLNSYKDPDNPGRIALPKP
Strand,E-score
GAAAGAAC,-0.1
AGAGCCGG,0.245
TCACACCA,-0.238
CTTCTTGC,0.0496
ATGACGGG,0.326
AGGAGTCC,-0.0401
CATTGCGA,-0.0959
TCCAAGGA,-0.00502
CAACCATA,-0.167
CATGGATA,-0.199
ATAATTGC,0.227
AAGCCTCA,-0.34
TAGACTGA,-0.0262
CGAAATTC,0.0432
CTCCGACA,-0.0573
CACATCCC,0.00298
AATGCCCG,0.253

# Set 4
# Target: Interferon regulatory factor 5, full length, phosphomimetic (IRF5, Homo sapiens, UniProt Q13568-2, residues 1-514, S451D/S453D/S456D/S462D)
# Technique: protein-binding microarray
# Form: double-stranded DNA, one strand shown
# Sample: in vitro
# Tested at: 940 nM top
# Notes: 60-bp whole probe
# With: salmon DNA 0.4 mg/ml
# Reference: random background probes
# Direction: higher = stronger binding
# Constant ends, left off below: GCCTAGCAC … GTCTTGATTCGCTTGACGCTGCTG
Strand,fitted relative affinity [z-score]
TCAGGTTTCGGGACTGGGTTAGTGCTA,7.35
TTAGATATCAGACTGGCTTAGTGCTAG,-0.175
TAAATTCTGAAAATGGAAACGTGCTAG,-0.079
TTAGGTCGCCTTTTCCTTTAGTGCTAG,0.0414
TCATTTTTCCCTATTATACTGTGCTAG,2
TCAAGTCTAGCCATTGTGACTGTGCTA,-0.441
TTAGGTATAGACACTGGGTTAGTGCTA,-0.15
TCAACTTTAACTTATTCTACTGTGCTA,0.916
GACGGTTTCCACTTTCGGGACGTGCTA,2.07
GACGGTATCGACTATCGGGACGTGCTA,4.81
ATTACTCCCCAACTCGCCTTGTGCTAG,0.599
GACGATATCGGGACTGGGGACGTGCTA,-0.0322
TTAGGTCTCGGTCTCGGGTAGTGCTAG,4.36
TGAGGTATCGACTTTCGGTTAGTGCTA,4.77
GACGGGCTGGGTCTCGGGACGTGCTAG,-0.207
TATGAAATGGAAGTTTAGGGGTGCTAG,-0.191
GGCGATATCAGTTTCGAGACGTGCTAG,4.47
GACGATATCAGTATCGCGACGTGCTAG,0.208
GACCGTTTCGGACTGGGGACGTGCTAG,1.85
TTAGATCTCAGTTTCGATGAGTGCTAG,6.51
TCAAATATATGTATATAACTGTGCTAG,-0.0607
GACGATATCATTTTCGAGACGTGCTAG,0.674
TTAGGACTGCTTATCATTTAGTGCTAG,-0.0321
TCAGTTTCTCCTTTGTAACTGTGCTAG,4.99
CTGCTTGAAACTCTTACCCCGTGCTAG,0.371

# Excerpt of the above (set 2):
Strand,RBNS enrichment (R)
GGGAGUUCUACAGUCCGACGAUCCUUCUGAGAGGCAAUGUGAAAGAGGAAGUAUUACUUUUUAUGUACAGAGUUAUUUAUUUAUAGAAAUUUUGGUACAGUGUACAUUGAAAACAUGUAAAAUAUUGAAGUGUUGGAAUUCUCGGGUGCCAA,0.829
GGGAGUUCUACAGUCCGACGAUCUGGAAAGGUGUUGGCGCUGAUGUAGCUCAUGGAAGGAUCAGACUGGGAACCACAGAGGAAGGAUGAGGUGGGAUGUGGAGGUCAGAGCAUCUCACGAGAGUCCCUCAGGCUGGAAUUCUCGGGUGCCAA,1.02
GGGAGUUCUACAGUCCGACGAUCGAUUGCGAAACACAGGAAUGUGCAGGCGCUCCGGGGGGUGUAAAGUGAACGUUUCCAUCGUUAGAAUGUUUUCUCUGGCCAUUUGUGGAUUUAAUGCACUUGACGUGGAUUGGAAUUCUCGGGUGCCAA,0.55
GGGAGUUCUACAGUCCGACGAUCGGUUGCUGCUGAAGGAGGAGGCAGCAGCGAGGUCCUGCGGUACCCAUGGGGUGAUGCUACUUCUGCAUGCAUCUACAGGGCAUCUGACACCUAACAUGAGACGUGGCAUGUGGAAUUCUCGGGUGCCAA,6.47
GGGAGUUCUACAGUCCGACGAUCAGAUACUCUAGGAUGAUCACUUGUGCUUAGCUUAGCAUUGUAACUCUUUAAGUCUAUAUUUUCCUCAGUGCGUUUCUUUACAAUUUCAAAUGUUACCCUGAUUGUUUAUAUGGAAUUCUCGGGUGCCAA,0.516
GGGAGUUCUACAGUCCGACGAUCCCCCAUCAAAAAAAAAAAUGGAUACAUGGUUAAAGGAUAGAAGGGCAAUAUUUUAUCAUAUGUUCUAAAAGAGAAGGAAGAGAAAAUACUACUUUCUCAAAAUGGAAGCCUGGAAUUCUCGGGUGCCAA,0.5
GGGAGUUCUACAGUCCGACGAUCUGUAAUGAACAGACCCGAAGGAAUCCUCCACACACAAGCCAGGGAACACCAACUGGAAAGGUACCCCGUCCCAGGGAAGCCUGCUAGGGAGAGGUUCUGUAGAAUCCGAGUGGAAUUCUCGGGUGCCAA,0.246
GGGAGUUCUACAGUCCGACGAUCAAACCAGUCAAGAGCAAUCAAAGCAGCACAUGGUGUUGUAUACUUCAUUAGCAAGUGAGUUUGGUGUUUUAUAGGUCACAUAUGUCUGUAUCUACUUAGCCAGAUGCUUGUGGAAUUCUCGGGUGCCAA,0.398
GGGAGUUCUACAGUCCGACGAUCUUGACUUGCUUGGUUUCAUUCACCAAACCAACCCAAGUCGUGUCAUUCUUGCCUAUUAACAUCUGAUGUAAGGCGCUCAUAUAGGCUGUGUGUACAAUCUUGGGCACUGAUGGAAUUCUCGGGUGCCAA,0.207
